Experimental data from different studies.
Numbered parts are unrelated; each lists some results of a single study.

Set 1
Target: RING finger protein unkempt homolog, zinc fingers 1-6, GST-SBP tag (UNK, Homo sapiens, UniProt Q9C0B0, residues 30-357)
Method: RNA Bind-n-Seq
Form: RNA
Medium: in vitro
Tested at: not given
Notes: RNA with constant flanks, human-mouse chimeric sites, ends assumed
Relative to: input RNA pool
Direction: higher = stronger binding
Quantity: bound/input enrichment
All sequences stand within: GGGAGUUCUACAGUCCGACGAUC … CAACAGAGGAUUGAGCAUCA
Construct (chain): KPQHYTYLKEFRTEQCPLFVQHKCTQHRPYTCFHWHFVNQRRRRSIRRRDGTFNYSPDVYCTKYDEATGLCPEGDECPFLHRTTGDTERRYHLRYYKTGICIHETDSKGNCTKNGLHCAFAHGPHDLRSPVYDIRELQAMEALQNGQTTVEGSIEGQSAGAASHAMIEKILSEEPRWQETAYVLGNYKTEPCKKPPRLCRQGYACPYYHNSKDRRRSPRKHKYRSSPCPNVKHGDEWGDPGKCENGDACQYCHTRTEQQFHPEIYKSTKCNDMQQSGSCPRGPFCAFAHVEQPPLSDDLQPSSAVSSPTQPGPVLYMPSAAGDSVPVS
UGGCGCCUGCGCUCCCCACUCGUGUUUUUAAGUGUAUUUUUAUAAGAUACAUGUAUUUGUAAUAGAUCUUUUGUUACAUAAUGCUGAAAUGCUACUGGAGAUUAUGAAAAAAUGUUAAAU: 0.326 ratio
AUAGAUGAAAUUGAUGUGGACCAGGAAGGAAUUGCUGAAAUGAUCCUGGAUGAAAAUGCUAUUGCUCAGGUCCCACGCCCUGGCACAUCUUUGAAACUCCCUGGAACUAACCAAACAGGA: 0.401 ratio
GGCUGCUGGUGACUGUCCUGGAGUGGCCGUGUCACCGGCCGGAGCGCGGCCAGACUAAUUUUAGAAAAUGCCAAGUAGGAAGUUUGUUGAGGGUGAAGUGGUCAGAGGCCGAUGGCCUGG: 5 ratio
AGGAGGAGGUUAAAGGGUGAAAAUGGGGUGGAAGACUGUGUCAUGGCUCUGGAGACACUGUUCAGUGUCCUGCUUUCUCUGUGCAGACUGAUGGCCCCCUACACACCCUUUCUGACUGAG: 0.0498 ratio
AAAGCCCAAGUAUUUUGAAAAAAUUCAAACAGAUUUGACAAGGGUAGCCAGCUUGGAGUCUAGCAACUUUGCCAAUGGUUUACCAAUCUGGGGGCUUGUUUUUCUUUUCUUCUUUCAAAU: 0.329 ratio
GUCAACAGUUGUCUCAACCCCAUCCUCUACGCCUUCCUGGAUGAGAACUUCAAGGCCUGCUUCCGCAAGUUCUGCUGUGCAUCUGCCCUGCGCCGGGAGAUGCAGGUGUCUGACCGCGUG: 0.38 ratio
AGCGUUCAGGAAUUCAUGACCUUUACAAGUCAACUGAUUGUGGAACGCUCGGGGAAAGGCAGCAGAGCUUCUGUCAAAGAACAAGAGUAUCUUUGCCAUGUCUACGUCCGGAAUGAUAGU: 0.123 ratio
GUAGCUGGGACUACAGAAAUGCUGGUAAUUUCAGUCACUUGCUGAUGACUUCUGAUGACCUAGCAAAUGUUGGCAUUGUUGACUGCUGAGAAGAUACUUCUGAGGACAUACAGCAGUGGU: 0.242 ratio

Set 2
Target: Prothrombin, mature alpha-thrombin (F2, Homo sapiens, UniProt P00734)
Method: aptamer microarray, sandwich
Form: DNA with 2'F-ANA
Medium: in vitro
Tested at: 200 nM
Notes: whole 15-mer aptamer, many near background
With: Cy3 exosite-II aptamer, 400 nM
Direction: higher = stronger binding
Quantity: mean fluorescence intensity
Strand: GGTTGGTGTGGTTGG
2'F-ANA at 1 3 5 6 10 12 13: 45.9 a.u.
2'F-ANA at 1 2 5 8 10 11 12 13 15: 103 a.u.
2'F-ANA at 1 5 6 7 10 11 13 14: 49.5 a.u.
2'F-ANA at 1 6 8 9 10 12 15: 66.9 a.u.
2'F-ANA at 3 7 8 9 11 13 14 15: 693 a.u.
2'F-ANA at 1 3 4 6 7 8 9 10 11 15: 63.1 a.u.
2'F-ANA at 1 3 5 6 12 13 14: 43 a.u.
2'F-ANA at 1 3 4 6 8 10 12 14: 54.8 a.u.
2'F-ANA at 1 4 8: 193 a.u.
2'F-ANA at 3 5 6 7 10 11 14 15: 50.3 a.u.
2'F-ANA at 1 2 3 5 6 7 8 9 10 11 13: 50.1 a.u.
2'F-ANA at 1 5 8 14 15: 49 a.u.
2'F-ANA at 3 4 5 7 8 9 10: 52.7 a.u.
2'F-ANA at 1 2 4 6 8 9 12 14: 58.3 a.u.
2'F-ANA at 1 3 4 5 7 8 9 10 11 13: 59.6 a.u.
2'F-ANA at 3 4 7 8 10 12 15: 341 a.u.
2'F-ANA at 3 5 6 7 9 11 12 13 15: 121 a.u.
2'F-ANA at 3 4 6 7 8 9 10 12 15: 293 a.u.
2'F-ANA at 1 3 4 5 7 8 12 13: 89.3 a.u.
2'F-ANA at 3 4 6 8 11 12 13 14 15: 243 a.u.
2'F-ANA at 1 3 4 5 8 9 12: 158 a.u.

Set 3
Target: Histone acetyltransferase KAT6A, both winged helices, GST fusion (KAT6A, Homo sapiens, UniProt Q92794, residues 1-181)
Method: protein binding microarray
Form: double-stranded DNA, one strand shown
Medium: in vitro
Tested at: not given
Notes: 8-mer, flanks averaged, mean of 2 arrays, mostly near background
Relative to: not given
Direction: higher = stronger binding
Quantity: E-score
Construct (chain): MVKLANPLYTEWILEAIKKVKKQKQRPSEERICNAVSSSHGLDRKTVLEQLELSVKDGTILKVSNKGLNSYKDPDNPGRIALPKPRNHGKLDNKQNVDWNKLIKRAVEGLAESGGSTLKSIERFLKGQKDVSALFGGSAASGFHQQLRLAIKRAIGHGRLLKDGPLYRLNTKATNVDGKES
CGTGTTAA: 0.0141
GGTCATGA: 0.0145
GGGTACCA: -0.163
CATCCTCC: -0.0165
CCGAGTAA: 0.137
GATAGAGA: -0.125
GAAACTAA: -0.0888
CAGTCAAC: -0.128
CCGGCACG: 0.221
GGCTTCCA: 0.095
AGATCGAC: -0.0429
CTTGCAAA: -0.0281
GCGCATAA: 0.228
GTTGTTGA: -0.0986
ACTGCTAG: -0.0167
CCATGAGC: -0.0892
CCGTCGCG: 0.356
CGAGGTCC: 0.032
CTCCGCCC: 0.14
ACCACAGA: -0.164
CTGAGCGA: 0.0927
ACCGACAT: 0.0531
CATAGATG: -0.0849
AAGATTCC: -0.0584
GTTCACGA: -0.00045

Set 4
Target: PABPC1L2, full length, GST fusion (mouse, UniProt A0ABA7IW68)
Method: RNAcompete
Form: RNA
Medium: in vitro
Tested at: 20 nM
Notes: 7-mer, probes averaged, single round
Relative to: mean of 7-mers
Direction: higher = stronger binding
Quantity: 7-mer Z-score
Target sequence (chain): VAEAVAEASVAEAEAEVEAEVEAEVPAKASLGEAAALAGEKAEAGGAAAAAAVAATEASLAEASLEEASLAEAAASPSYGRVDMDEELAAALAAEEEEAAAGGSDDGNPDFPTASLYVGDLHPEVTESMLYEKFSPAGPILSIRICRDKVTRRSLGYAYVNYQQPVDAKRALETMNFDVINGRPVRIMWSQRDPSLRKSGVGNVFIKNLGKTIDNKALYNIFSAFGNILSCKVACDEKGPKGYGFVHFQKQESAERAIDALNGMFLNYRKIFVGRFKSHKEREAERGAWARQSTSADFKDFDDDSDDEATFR
GACACUC: -0.186
CCAUUGU: -0.311
GGAGCCA: 0.0623
UGACGUC: -0.28
GGUUCCA: -0.108
UCCAAUA: -0.0518
GUAGAUU: -0.0409
UUGUGCG: -0.367
CCACUGU: -0.313
GUUCCUC: -0.4
ACCCAUG: -0.164
UAAAGUG: 1.21
UAACUCA: -0.155
GUCGGAU: -0.0971
AUCAGGA: 0.0768
CGUCUUU: -0.382
GUGACGU: -0.271
UGGUCUG: -0.273
CGCAGGC: 0.0152
UUCUCUG: -0.277
UGAAUUA: -0.168
GGUCCCG: -0.211
UUCACCA: -0.0101
UUGGCCU: -0.423
GCUCAUU: -0.157

For quick reference, copied from above (set 2):
2'F-ANA at 3 4 7 8 10 12 15: 341 a.u.
2'F-ANA at 3 5 6 7 9 11 12 13 15: 121 a.u.
2'F-ANA at 3 4 6 7 8 9 10 12 15: 293 a.u.
2'F-ANA at 1 3 4 5 7 8 12 13: 89.3 a.u.
2'F-ANA at 3 4 6 8 11 12 13 14 15: 243 a.u.
